# Measured values of several laboratories.
# Each numbered part is a random draw from the data of one study; scales do not carry over between parts.

# Set 1
# Target: 5-hydroxytryptamine receptor 1E (HTR1E, Homo sapiens, UniProt P28566)
# UniProt P28566, sequence (whole entry, looked up): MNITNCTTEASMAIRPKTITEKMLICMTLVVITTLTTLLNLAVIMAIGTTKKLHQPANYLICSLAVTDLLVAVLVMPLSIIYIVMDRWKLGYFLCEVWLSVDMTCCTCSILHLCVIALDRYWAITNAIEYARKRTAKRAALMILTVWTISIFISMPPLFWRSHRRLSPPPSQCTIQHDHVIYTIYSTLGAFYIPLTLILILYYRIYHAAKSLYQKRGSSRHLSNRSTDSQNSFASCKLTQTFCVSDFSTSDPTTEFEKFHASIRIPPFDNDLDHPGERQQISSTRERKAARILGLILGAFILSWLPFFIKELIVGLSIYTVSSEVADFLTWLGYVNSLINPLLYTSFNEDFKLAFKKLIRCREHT
# Observed: ligand displacement
# Technique: radioligand
# Tested at: 10 µM
Structure (SMILES),inhibition
O=C(O)[C@H]1[C@H](Cn2nnc3ccccc3c2=O)CC[C@@H]1C(=O)c1ccc(OCCC2CCOCC2)cc1,7.37%
Cc1c(C(=O)O)cc(-c2ccc(C3CCNCC3)cc2)c2ccc(-c3ccc(C(F)(F)F)cc3)cc12,3.48%
N#Cc1ccc(Nc2ccc3[nH]c(=O)[nH]c3c2)c(Cl)c1,12.6%
COc1ccc2cc(OCC3(C(=O)O)CN(C(=O)c4ccc(F)cc4)C3)ccc2c1,11%
CN([C@@H]1CCc2c(CC(=O)O)c3cc(S(C)(=O)=O)ccc3n2C1)S(=O)(=O)c1ccc(F)cc1,5.5%
Cc1nc(Cc2cccc(C(F)(F)F)c2)sc1-c1ccc(C(N)=O)nc1,9.13%
CN(C)CC#Cc1ccc(OCCCc2sc(N3CCc4cccc(C(=O)Nc5nc6ccccc6s5)c4C3)nc2C(=O)O)c(F)c1,-4.32%
FC(F)(F)c1ccc2c(c1)nc(-c1cccnc1)n2C1CC1,-18.6%
CCc1ccccc1C(=O)Nc1n[nH]c2c(C)c(F)c(C3C(C#N)=C(C)N(C)C(C)=C3C#N)cc12,2.66%
CCOC(=O)c1cc2cc(-c3cc(C(=O)NCc4ccc(C(=O)O)cc4)nn3C)ccc2[nH]1,6.37%
NS(=O)(=O)c1cc(NC(=O)C2(c3ccccc3Cl)CC2)ccc1Oc1cccc(Cl)c1,-1.46%
O=c1nc(-c2ccccn2)sc2ccccc12,-1.13%
O=C([C@H]1C[C@H](O)CN1c1ccc(Cl)cc1)N1CC2COCC(C1)N2Cc1ccc(Cl)cc1,-25.4%
O=S(=O)(NC1CCC(c2cc(F)ccc2F)(S(=O)(=O)c2ccc(Cl)cc2)CC1)C(F)(F)F (stereo not drawn),-8.31%
CC1=C(C#N)[C@@H](c2ccc3[nH]nc(C)c3c2)C(C#N)=C(c2ccc(Cl)cc2)N1,-3.84%
CNCc1ccccc1-c1csc([C@@H](C)Nc2nc(C)nc3cc(OC)c(OC)cc23)c1,5.81%
C[C@H](NC(=O)c1cnc2n1[C@](C)(Cc1ccc(C#N)cc1)C(=O)N2c1cc(Cl)c(F)c(Cl)c1)C(=O)NC1(c2ccccn2)CC1,17.7%
"CNC(=O)Nc1ccc2c(c1)C1(CC2)OC(=O)N(CC(=O)N(Cc2ccc(F)cc2)[C@@H](C)C(F)(F)F)C1=O (single isomer, unassigned)",0.33%
COc1cccc(CNC(=O)c2nc3scc(COCc4ccc(C(=O)O)cc4)c3c(=O)[nH]2)c1,-0.179%
CCOCCn1cc(C(=O)Nc2ccc(-n3nc(-c4cccnc4)cc3C(F)(F)F)cn2)ccc1=O,-4.17%

# Set 2
# Target: Calcium/calmodulin-dependent protein kinase type II subunit alpha (CAMK2A, Homo sapiens, UniProt Q9UQM7)
# UniProt Q9UQM7, sequence (whole entry, looked up): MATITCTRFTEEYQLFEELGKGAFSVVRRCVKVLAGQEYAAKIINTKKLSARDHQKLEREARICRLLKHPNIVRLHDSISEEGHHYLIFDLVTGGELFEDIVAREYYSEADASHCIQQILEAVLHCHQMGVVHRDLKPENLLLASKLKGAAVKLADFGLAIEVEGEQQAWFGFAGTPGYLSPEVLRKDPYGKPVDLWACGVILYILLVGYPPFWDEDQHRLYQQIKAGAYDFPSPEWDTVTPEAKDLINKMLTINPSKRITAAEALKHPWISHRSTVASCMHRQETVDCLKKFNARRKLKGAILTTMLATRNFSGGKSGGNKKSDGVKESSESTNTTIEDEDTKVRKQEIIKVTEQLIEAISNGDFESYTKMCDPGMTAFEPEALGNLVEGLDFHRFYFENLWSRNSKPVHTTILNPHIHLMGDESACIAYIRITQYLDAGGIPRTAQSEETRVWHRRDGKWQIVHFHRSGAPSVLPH
# Observed: enzyme activity
# Mode: inhibitor
# Tested at: 10 µM
Compound,inhibition [%]
CCCCCCCCCCCCCCCCCC(=O)O,-11
COC(=O)[C@H]1O[C@@H](O[C@H]2CC[C@]3(C)[C@H]4CC=C5[C@@H]6CC(C)(C)CC[C@]6(C(=O)O)CC[C@@]5(C)[C@]4(C)CC[C@H]3[C@]2(C)C=O)[C@H](O)[C@@H](O)[C@@H]1O,-3
O=C(O)c1cc(O)c2c(c1)C(=O)c1cccc(O)c1C2=O,2
CCn1cc(C(=O)O)c(=O)c2cc(F)c(N3CCNC(C)C3)c(F)c21 (stereo not drawn),-1
CCCCCCOC(=O)CCC(=O)CN,4
CN1CCCN=C1/C=C/c1cccs1,-5
CC[C@H]1OC(=O)[C@H](C)[C@@H](O[C@H]2C[C@@](C)(OC)[C@@H](O)[C@H](C)O2)[C@H](C)[C@@H](O[C@@H]2O[C@H](C)C[C@H](N(C)C)[C@H]2O)[C@](C)(O)C[C@@H](C)[C@@H]2N[C@@H](COCCOC)O[C@H]([C@H]2C)[C@]1(C)O,-8

# Set 3
# SMILES: CC(C)n1cnc(-c2ccc(F)cc2)c1-c1ncc(C(=O)Nc2ccc(N3CCN(C)CC3)cc2)[nH]1
# Technique: phase 2a trial
# Host: idiopathic pulmonary fibrosis patients
refers to,dose,notes,adverse event incidence [%]
synovitis,30 mg once daily,grade 3,0
hydroxybutyrate dehydrogenase increased,60 mg once daily,grade 3,0
arthritis,dose not given,"grade 2, all arms pooled",0
carotid intima-media thickening,30 mg once daily,grade 2,0
immunoglobulins increased,30 mg once daily,grade 2,0
chronic gastritis,60 mg once daily,grade 1,0
infection,30 mg once daily,grade 3,0
immunoglobulins increased,30 mg once daily,grade 3,0
immunoglobulins increased,60 mg once daily,grade 2,0
arthritis,dose not given,"grade 5, all arms pooled",0
appendicitis,60 mg once daily,grade 2,0
arthritis,dose not given,"grade 4, all arms pooled",0

# Set 4
# Target: LIM domain kinase 1 (LIMK1, Homo sapiens, UniProt P53667)
# UniProt P53667, sequence (whole entry, looked up): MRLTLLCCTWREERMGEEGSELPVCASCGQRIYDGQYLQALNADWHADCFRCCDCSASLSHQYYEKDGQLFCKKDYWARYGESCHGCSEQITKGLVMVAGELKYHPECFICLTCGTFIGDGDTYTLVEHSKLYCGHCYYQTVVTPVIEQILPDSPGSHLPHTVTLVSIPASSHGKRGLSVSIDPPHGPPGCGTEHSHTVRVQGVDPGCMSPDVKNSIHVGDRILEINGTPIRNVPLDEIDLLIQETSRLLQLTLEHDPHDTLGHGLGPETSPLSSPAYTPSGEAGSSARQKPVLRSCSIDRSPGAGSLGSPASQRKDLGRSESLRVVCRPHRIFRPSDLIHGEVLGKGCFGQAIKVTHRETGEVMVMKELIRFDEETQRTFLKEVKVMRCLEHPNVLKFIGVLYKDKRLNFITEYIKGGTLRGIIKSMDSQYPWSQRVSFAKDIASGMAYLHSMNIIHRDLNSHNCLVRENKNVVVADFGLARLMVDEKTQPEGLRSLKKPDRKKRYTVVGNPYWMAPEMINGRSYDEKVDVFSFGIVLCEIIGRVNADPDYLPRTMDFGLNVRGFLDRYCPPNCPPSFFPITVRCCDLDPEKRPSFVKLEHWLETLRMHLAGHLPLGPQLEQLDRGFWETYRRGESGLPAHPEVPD
# Observed: enzyme activity
# Mode: inhibitor
# Tested at: 0.5 µM
# Relative to: control
Compound,remaining activity [%]
Ic1cccc(CSc2nnc(-c3ccncc3)o2)c1,85.8
N#C/C(=C\c1ccc(O)c(O)c1)C(=O)NCc1ccccc1,97
c1ccc(-c2cnc(Nc3ccc(OCCN4CCCC4)cc3)s2)cc1,66.8
COc1cc2ncnc(Nc3ccc(O)c(Br)c3)c2cc1OC,85.1
COc1cc2ncnc(Nc3cccc(Cl)c3)c2cc1OC,72.4
CCN(CC)CCNC(=O)c1c(C)[nH]c(/C=C2\C(=O)Nc3ccc(F)cc32)c1C,94.3
Nc1cccc(-c2cc3c(Oc4cccc(O)c4)ncnc3[nH]2)c1,22.1
O=C(Nc1cccc(Nc2nccc(Nc3cccc(C(F)(F)F)c3)n2)c1)C1CC1,45.1
Cc1nc2cc3nc(-c4cccs4)cnc3cc2n1C,112
CCN(CC)C(=O)c1ccc(Nc2nc(OCC3CCCCC3)c3[nH]cnc3n2)cc1,35.1
CN(C)C[C@H]1CCn2c(c(C3=C(c4cn(C)c5ccccc45)C(=O)NC3=O)c3ccccc32)C1,89.4
COc1cc2c(cc1OC)-c1[nH]nc(Nc3cccc(F)c3)c1C2,23.3
O=C1C(Cl)=C(N2C(=O)CCC2=O)C(=O)c2ccccc21,92.5
O=C(NC(NC(=S)Nc1ccc(F)c([N+](=O)[O-])c1)C(Cl)(Cl)Cl)C(c1ccccc1)c1ccccc1 (stereo not drawn),94.5
Cn1nc2c3c(cccc31)C(=O)c1ccccc1-2,97.1
CN([C@@H](Cc1ccc(OS(=O)(=O)c2cccc3cnccc23)cc1)C(=O)N1CCN(c2ccccc2)CC1)S(=O)(=O)c1cccc2cnccc12,104
CCN(CC)CCNC(=O)c1c(C)[nH]c(/C=C2\C(=O)Nc3ccc(Cl)cc32)c1C,98.4
N#Cc1c(NC(=O)c2cccc3ccccc23)sc2c1CCCC2,102
Cc1cn(-c2cc(NC(=O)c3ccc(C)c(Nc4nccc(-c5cccnc5)n4)c3)cc(C(F)(F)F)c2)cn1,94
Cc1cc2ncc(-c3ccccc3)nc2cc1C,102
CCOc1nc(NC(=O)Cc2cc(OC)ccc2OC)cc(N)c1C#N,103
c1ccc(-c2[nH]ncc2-c2ccnc3ccccc23)nc1,103
O=C1c2ccccc2-c2n[nH]c3cccc1c23,78.1
O=c1cc(-c2cccc3c2Sc2ccccc2S3)oc(N2CCOCC2)c1,103

# Excerpt of the above (set 1):
Structure (SMILES),inhibition
CN(C)CC#Cc1ccc(OCCCc2sc(N3CCc4cccc(C(=O)Nc5nc6ccccc6s5)c4C3)nc2C(=O)O)c(F)c1,-4.32%
FC(F)(F)c1ccc2c(c1)nc(-c1cccnc1)n2C1CC1,-18.6%
CCc1ccccc1C(=O)Nc1n[nH]c2c(C)c(F)c(C3C(C#N)=C(C)N(C)C(C)=C3C#N)cc12,2.66%
CCOC(=O)c1cc2cc(-c3cc(C(=O)NCc4ccc(C(=O)O)cc4)nn3C)ccc2[nH]1,6.37%
NS(=O)(=O)c1cc(NC(=O)C2(c3ccccc3Cl)CC2)ccc1Oc1cccc(Cl)c1,-1.46%
